Published values gathered from unrelated publications.
Compare with care: the assays were run in different laboratories. Numbers after ± are the reported error.

Compound	cell line	assay	conditions	IC50
NCCC(=O)N[C@@H](Cc1cnc[nH]1)C(=O)O	SH-SY5Y	cell growth or viability, SRB	24 h	> 200000 nM
Nc1ccn([C@@H]2CS[C@H](CO)O2)c(=O)n1	HepG2.4D14	cell growth	96 h	180800 ± 90 nM
CC1(C)Cc2c(-c3ccccc3)c(-c3ccc(Cl)cc3)c(CC(=O)O)n2C1	Apc10.1 cells overexpressing Has2	cell proliferation, MTS	–	86000 ± 7200 nM
O=C(O)Cc1ccccc1Nc1c(Cl)cccc1Cl	RAW264.7	TNF-α release, inhibitor, ELISA	LPS-stimulated	7460 nM
Cc1cc(C#Cc2cccc(-c3nn(-c4nc(C(=O)O)cs4)c(CCC4CC4)c3Cc3ccc(S(N)(=O)=O)c(F)c3)c2)cs1	MIA PaCa-2	cell growth or viability	48 h	223 nM
O=C1C(n2nc(-c3c(O)c4ccccc4oc3=O)cc2-c2ccc(Cl)cc2)c2cc(Br)ccc2N1Cc1ccccc1 (stereo not shown)	A-375	cell growth or viability, SRB	72 h	1020 nM
CC(C)=CCc1c(O)cc(/C=C/c2ccc(O)cc2)cc1O	HL-60	reactive oxygen species, inhibitor, fluorescence	–	0.04 µg/mL
CCCNC(=O)Nc1ccc(S(=O)(=O)Oc2cccnc2C(C)C)cc1	MOLM-13	cell growth or viability, MTT	48 h	2300 nM
Cc1ccc(NC(=O)CSc2nnc(-c3ccc(NC(=O)c4cccnc4)cc3)o2)cc1	RAW264.7	reactive oxygen species, inhibitor, fluorescence	LPS-stimulated	12100 nM
O=C1C(=Cc2ccccc2)CN(C(=O)c2ccccc2C(=O)N2CC(=Cc3ccccc3)C(=O)C(=Cc3ccccc3)C2)CC1=Cc1ccccc1	Molt4/C8	cell growth or viability	–	850 nM
CCNC(=O)Nc1ccc(S(=O)(=O)Oc2cccnc2I)cc1	MOLM-13	cell growth or viability, MTT	48 h	800 nM
Nn1c(SCC(=O)Nc2ccccc2Cl)nnc1-c1ccc(NC(=O)c2cccnc2)cc1	RAW264.7	NO release, inhibitor, Griess	LPS-stimulated	7830 nM
CCCCNc1ccc(C(=O)OCCN(CC)CC)c(OC)c1	ventricular myocytes R176Q mouse	Ca2+ spark frequency	2 h, added: isoproterenol 100 nM	35 nM

For quick reference, copied from above:
Compound	cell line	assay	conditions	IC50
CC(C)=CCc1c(O)cc(/C=C/c2ccc(O)cc2)cc1O	HL-60	reactive oxygen species, inhibitor, fluorescence	–	0.04 µg/mL
